{"data": "Measured values of several laboratories", "note": "Compare with care: the assays were run in different laboratories. ± gives the spread as reported."}
{"Compound": "CCCC[C@H](NC(=O)CNC(=O)[C@H](CO)NC(=O)CNC(=O)c1ccc(NN)nc1)C(=O)N[C@H]1CC(=O)NCCCC[C@@H](C(N)=O)NC(=O)[C@H](Cc2c[nH]c3ccccc23)NC(=O)[C@H](CCCNC(=N)N)NC(=O)[C@@H](Cc2ccccc2)NC(=O)[C@H](Cc2c[nH]cn2)NC1=O [technetium-99m labelled]", "test system": "C57 mouse, B16/F1 melanoma, tumor", "setting": "intravenous, 2 h", "endpoint": "uptake", "result": "7.41 ± 4.26 %ID/g"}
{"Compound": "CCCC[C@@H](NC(=O)[C@H](Cc1c[nH]c2ccccc12)NC(=O)[C@@H](N)CSC1CC(=O)N(CC2CCC(C(=O)N[C@H]3C[C@H](O[C@H]4C[C@](O)(C(=O)CO)Cc5c(O)c6c(c(O)c54)C(=O)c4c(OC)cccc4C6=O)O[C@@H](C)[C@H]3O)CC2)C1=O)C(=O)N[C@@H](CCC(=O)O)C(=O)N[C@@H](C)C(=O)N[C@@H](C)C(=O)N[C@@H](Cc1ccc(O)cc1)C(=O)N[C@@H](CCC(N)=O)C(=O)N[C@H](CCCNC(=N)N)C(=O)N[C@@H](Cc1ccccc1)C(=O)N[C@@H](CC(C)C)C(N)=O (stereo partly shown)", "test system": "water", "setting": "up to 48 h, pH 7.0", "endpoint": "intact compound", "result": "> 80%"}
{"Compound": "Cc1ncsc1-c1ccc(CNC(=O)[C@@H]2C[C@@H](OC(=O)OCCSSCCn3cc(CCCC(=O)N[C@@H](Cc4ccc(O)cc4)C(=O)N[C@@H](CCCNC(=N)N)C(=O)N[C@@H](CCCNC(=N)N)C(=O)N[C@@H](CCCNC(=N)N)C(=O)N[C@@H](CCCNC(=N)N)C(=O)N[C@@H](CCCNC(=N)N)C(=O)N[C@@H](CCCNC(=N)N)C(=O)N[C@@H](CCCNC(=N)N)C(=O)N[C@@H](CCCNC(=N)N)C(=O)N[C@@H](CCCNC(=N)N)C(N)=O)nn3)CN2C(=O)[C@@H](NC(=O)COCCOCCOCCNC(=O)C[C@@H]2N=C(c3ccc(Cl)cc3)c3c(sc(C)c3C)-n3c(C)nnc32)C(C)(C)C)cc1", "test": "UHPLC", "test system": "PBS", "setting": "100 nM, 0.5 h, 37 °C, together with: 5 mM glutathione", "scale": "baseline: total peak area", "endpoint": "remaining intact compound", "result": "0%"}
{"Compound": "N=C(N)NCCC[C@@H]1NC(=O)[C@H](CCCCNC(=O)CC[C@H](NC(=O)CCOCCOCCOCCOCCNC(=O)CN2CCN(CC(=O)O)CCN(CC(=O)O)CCN(CC(=O)O)CC2)C(=O)NCCCC[C@@H]2NC(=O)[C@@H](Cc3ccccc3)NC(=O)[C@H](CC(=O)O)NC(=O)CNC(=O)[C@H](CCCNC(=N)N)NC2=O)NC(=O)[C@@H](Cc2ccccc2)NC(=O)[C@H](CC(=O)O)NC(=O)CNC1=O [indium-111 labelled]", "test system": "female athymic nude mice, brain", "setting": "intravenous, 3 µCi, 24 h, U-87 MG glioma xenograft", "endpoint": "tissue uptake", "result": "0.06 %ID/g"}
{"Compound": "CC(C)C[C@@H]1NC(=O)[C@H](C(C)C)NC(=O)[C@H](CO)NC(=O)CNC(=O)CNC(=O)[C@H](CCCNC(=N)N)NC(=O)[C@@H]2CCCN2C(=O)[C@@H](NC(=O)CC[C@H](NC(=O)c2ccc(N(C)Cc3cnc4nc(N)nc(N)c4n3)cc2)C(=O)O)C(C)(C)SSC[C@@H](C(=O)O)NC(=O)CNC(=O)[C@H]([C@@H](C)O)NC(=O)[C@H](C(C)C)NC1=O", "test system": "rat plasma", "setting": "1 µM, 37 °C", "endpoint": "half-life", "result": "44 min"}
{"Compound": "CCCC[C@H](NC(=O)CNC(=O)CNC(=O)c1ccc(NN)nc1)C(=O)N[C@H]1CC(=O)NCCCC[C@@H](C(N)=O)NC(=O)[C@H](Cc2c[nH]c3ccccc23)NC(=O)[C@H](CCCNC(=N)N)NC(=O)[C@@H](Cc2ccccc2)NC(=O)[C@H](Cc2c[nH]cn2)NC1=O [technetium-99m labelled]", "test system": "C57 mouse, B16/F1 melanoma-bearing", "setting": "intravenous, 24 h", "scale": "baseline: tumour over lung", "endpoint": "tissue uptake ratio", "result": 50.4}
{"Compound": "CSCC[C@H](NC(=O)[C@H](CC(C)C)NC(=O)[C@H](Cc1c[nH]cn1)NC(=O)CNC(=O)[C@@H](NC(=O)[C@H](C)NC(=O)[C@H](Cc1c[nH]c2ccccc12)NC(=O)[C@H](CCC(N)=O)NC(=O)CCCCCNC(=O)CN1CCN(CC(=O)O)CCN(CC(=O)O)CC1)C(C)C)C(N)=O [gallium-68 labelled]", "test": "radio-HPLC", "test system": "fetal bovine serum", "setting": "0 min, 37 °C", "endpoint": "intact parent compound", "result": "> 95%"}
{"Compound": "N=C(N)NCCC[C@@H]1NC(=O)[C@H](CCCCNC(=O)CNC(=O)CNC(=O)CNC(=O)CC[C@H](NC(=O)CCOCCOCCOCCOCCNC(=O)CC[C@H](NC(=O)CN2CCN(CC(=O)O)CCN(CC(=O)O)CCN(CC(=O)O)CC2)C(=O)NCCOCCOCCOCCOCCC(=O)N[C@@H](CCC(=O)NCC(=O)NCC(=O)NCC(=O)NCCCC[C@@H]2NC(=O)[C@@H](Cc3ccccc3)NC(=O)[C@H](CC(=O)O)NC(=O)CNC(=O)[C@H](CCCNC(=N)N)NC2=O)C(=O)NCC(=O)NCC(=O)NCC(=O)NCCCC[C@@H]2NC(=O)[C@@H](Cc3ccccc3)NC(=O)[C@H](CC(=O)O)NC(=O)CNC(=O)[C@H](CCCNC(=N)N)NC2=O)C(=O)NCC(=O)NCC(=O)NCC(=O)NCCCC[C@@H]2NC(=O)[C@@H](Cc3ccccc3)NC(=O)[C@H](CC(=O)O)NC(=O)CNC(=O)[C@H](CCCNC(=N)N)NC2=O)NC(=O)[C@@H](Cc2ccccc2)NC(=O)[C@H](CC(=O)O)NC(=O)CNC1=O [indium-111 labelled]", "test system": "female athymic nude mice, eyes", "setting": "intravenous, 3 µCi, 4 h, U-87 MG glioma xenograft", "endpoint": "tissue uptake", "result": "0.66 ± 0.08 %ID/g"}
{"Compound": "CSCC[C@H](NC(=O)[C@H](CC(C)C)NC(=O)[C@H](Cc1c[nH]cn1)NC(=O)CNC(=O)[C@@H](NC(=O)[C@H](C)NC(=O)[C@H](Cc1c[nH]c2ccccc12)NC(=O)[C@H](CCC(N)=O)NC(=O)CCCCCNC(=O)CNC(=O)CNC(=O)CNC(=O)CSC(C)=O)C(C)C)C(N)=O [technetium-99m labelled]", "test system": "healthy Swiss mouse, stomach, contents removed", "setting": "intravenous, 18.5 MBq, 30 min", "endpoint": "tissue uptake", "result": "0.49 ± 0.05 %ID/g"}
{"Compound": "C[C@@H](O)[C@H](NC(=O)[C@@H]1CSSC[C@H](NC(=O)[C@@H](Cc2ccccc2)NC(=O)CN2CCCN3CCN(CCCN(CP(=O)(O)O)CC3)CC2)C(=O)N[C@@H](Cc2ccc(O)cc2)C(=O)N[C@H](Cc2c[nH]c3ccccc23)C(=O)N[C@@H](CCCCN)C(=O)N[C@@H]([C@@H](C)O)C(=O)N1)C(=O)O [copper-64 labelled]", "test system": "male Lewis rat, AR-42J tumour-bearing", "setting": "dose not given, 1 to 24 h", "endpoint": "activity cleared from tumour", "result": "72%"}
{"Compound": "N=C(N)NCCC[C@@H]1NC(=O)[C@H](CCCCNC(=O)CCOCCOCCOCCOCCNC(=O)CC[C@H](NC(=O)CCOCCOCCOCCOCCNC(=O)CC[C@H](NC(=O)CN2CCN(CC(=O)O)CCN(CC(=O)O)CCN(CC(=O)O)CC2)C(=O)NCCOCCOCCOCCOCCC(=O)N[C@@H](CCC(=O)NCCOCCOCCOCCOCCC(=O)NCCCC[C@@H]2NC(=O)[C@@H](Cc3ccccc3)NC(=O)[C@H](CC(=O)O)NC(=O)CNC(=O)[C@H](CCCNC(=N)N)NC2=O)C(=O)NCCOCCOCCOCCOCCC(=O)NCCCC[C@@H]2NC(=O)[C@@H](Cc3ccccc3)NC(=O)[C@H](CC(=O)O)NC(=O)CNC(=O)[C@H](CCCNC(=N)N)NC2=O)C(=O)NCCOCCOCCOCCOCCC(=O)NCCCC[C@@H]2NC(=O)[C@@H](Cc3ccccc3)NC(=O)[C@H](CC(=O)O)NC(=O)CNC(=O)[C@H](CCCNC(=N)N)NC2=O)NC(=O)[C@@H](Cc2ccccc2)NC(=O)[C@H](CC(=O)O)NC(=O)CNC1=O [indium-111 labelled]", "test system": "athymic nude mice, female, U-87 MG glioma xenograft, tumour and lungs", "setting": "intravenous, 1 h", "scale": "baseline: tumour over lungs", "endpoint": "tumour to tissue ratio", "result": "3.13 ± 1.09"}
{"Compound": "CC(C)C[C@H](NC(=O)[C@@H]1CCCN1C(=O)[C@H](CCCCN)NC(=O)[C@@H](N)CO)C(=O)N1CCC[C@H]1C(=O)N[C@@H](CCC(=O)O)C(=O)N[C@H](C(=O)N[C@H](C(=O)N[C@@H](CC(=O)O)C(=O)N[C@@H](CCC(=O)O)C(=O)N[C@@H](Cc1ccc(O)cc1)C(=O)N[C@@H](Cc1cn(CCOCCOCCOCCNC(=O)CCc2ccc(O)c(CN(CCN(CC(=O)O)Cc3cc(CCC(=O)NCCCC[C@H](NC(=O)N[C@@H](CCC(=O)O)C(=O)O)C(=O)O)ccc3O)CC(=O)O)c2)nn1)C(=O)O)[C@@H](C)O)C(C)C [gallium-68 labelled]", "test system": "NMRI nu/nu mice, LNCaP tumour, muscle", "setting": "135.34 nmol/kg, low molar activity", "endpoint": "standardized uptake value", "result": "0.02 g/g"}
{"Compound": "N=C(N)NCCC[C@@H]1NC(=O)[C@H](CCCCNC(=O)CC[C@H](NC(=O)CCOCCOCCOCCOCCNC(=O)CC[C@H](NC(=O)CN2CCN(CC(=O)O)CCN(CC(=O)O)CCN(CC(=O)O)CC2)C(=O)NCCOCCOCCOCCOCCC(=O)N[C@@H](CCC(=O)NCCCC[C@@H]2NC(=O)[C@@H](Cc3ccccc3)NC(=O)[C@H](CC(=O)O)NC(=O)CNC(=O)[C@H](CCCNC(=N)N)NC2=O)C(=O)NCCCC[C@@H]2NC(=O)[C@@H](Cc3ccccc3)NC(=O)[C@H](CC(=O)O)NC(=O)CNC(=O)[C@H](CCCNC(=N)N)NC2=O)C(=O)NCCCC[C@@H]2NC(=O)[C@@H](Cc3ccccc3)NC(=O)[C@H](CC(=O)O)NC(=O)CNC(=O)[C@H](CCCNC(=N)N)NC2=O)NC(=O)[C@@H](Cc2ccccc2)NC(=O)[C@H](CC(=O)O)NC(=O)CNC1=O [indium-111 labelled]", "test system": "athymic nude mice, female, U-87 MG glioma xenograft, tumour and kidney", "setting": "intravenous, 0.5 h", "scale": "baseline: tumour over kidney", "endpoint": "tumour to tissue ratio", "result": "1.46 ± 0.67"}
{"Compound": "CCCC[C@H](NC(=O)CCCCCCCNC(=O)c1ccc(NN)nc1)C(=O)N[C@H]1CC(=O)NCCCC[C@@H](C(N)=O)NC(=O)[C@H](Cc2c[nH]c3ccccc23)NC(=O)[C@H](CCCNC(=N)N)NC(=O)[C@@H](Cc2ccccc2)NC(=O)[C@H](Cc2c[nH]cn2)NC1=O [technetium-99m labelled]", "test system": "C57 mouse, B16/F1 melanoma, tumor", "setting": "intravenous, 0.5 h", "endpoint": "uptake", "result": "23.4 ± 3.37 %ID/g"}
{"Compound": "N=C(N)NCCC[C@@H]1NC(=O)[C@H](CCCCNC(=O)CCOCCOCCOCCOCCNC(=O)CN2CCN(CC(=O)O)CCN(CC(=O)O)CCN(CC(=O)O)CC2)NC(=O)[C@@H](Cc2ccccc2)NC(=O)[C@H](CC(=O)O)NC(=O)CNC1=O [indium-111 labelled]", "test system": "athymic nude mice, female, U-87 MG glioma xenograft, tumour and kidney", "setting": "intravenous, 0.5 h", "scale": "baseline: tumour over kidney", "endpoint": "tumour to tissue ratio", "result": "0.36 ± 0.13"}
{"Compound": "N=C(N)NCCC[C@H](NC(=O)[C@H](CCCCN)NC(=O)[C@H](CCC(N)=O)NC(=O)CCOCCOCCOCCNC(=O)CN1CCN(CC(=O)O)CCN(CC(=O)O)CCN(CC(=O)O)CC1)C(=O)N[C@@H](CCCCN)C(=O)N[C@@H](CCCNC(=N)N)C(=O)N[C@@H](CCCCN)C(=O)N[C@@H](CCCCN)C(=O)N[C@@H](CO)C(=O)N[C@@H](CCCNC(=N)N)C(=O)N[C@@H](Cc1ccc(O)cc1)C(=O)N[C@@H](CCCCN)C(=O)N[C@@H](CO)C(=O)O [copper-64 labelled]", "test system": "mice, B16-F10 melanoma", "setting": "intravenous", "endpoint": "blood half-life", "result": "~22 min"}
{"note": "For quick reference, copied from above:"}
{"Compound": "CC(C)C[C@H](NC(=O)[C@@H]1CCCN1C(=O)[C@H](CCCCN)NC(=O)[C@@H](N)CO)C(=O)N1CCC[C@H]1C(=O)N[C@@H](CCC(=O)O)C(=O)N[C@H](C(=O)N[C@H](C(=O)N[C@@H](CC(=O)O)C(=O)N[C@@H](CCC(=O)O)C(=O)N[C@@H](Cc1ccc(O)cc1)C(=O)N[C@@H](Cc1cn(CCOCCOCCOCCNC(=O)CCc2ccc(O)c(CN(CCN(CC(=O)O)Cc3cc(CCC(=O)NCCCC[C@H](NC(=O)N[C@@H](CCC(=O)O)C(=O)O)C(=O)O)ccc3O)CC(=O)O)c2)nn1)C(=O)O)[C@@H](C)O)C(C)C [gallium-68 labelled]", "test system": "NMRI nu/nu mice, LNCaP tumour, muscle", "setting": "135.34 nmol/kg, low molar activity", "endpoint": "standardized uptake value", "result": "0.02 g/g"}
